Results from different studies.
Numbers after ± are the reported error.

Compound	cell line	test	setting	IC50 [µM]
CC(C)[C@H](NC(=O)[C@H](Cc1c[nH]c2ccccc12)NC(=O)[C@H](Cc1c[nH]cn1)NC(=O)[C@H](CCCNC(=N)N)NC(=O)[C@H](CCCNC(=N)N)NC(=O)[C@H](Cc1c[nH]c2ccccc12)NC(=O)[C@H](Cc1c[nH]c2ccccc12)NC(=O)[C@H](Cc1c[nH]cn1)NC(=O)[C@H](Cc1c[nH]c2ccccc12)NC(=O)[C@H](CCCNC(=N)N)NC(=O)[C@@H](N)CCCCN)C(=O)N[C@H](C(=O)N[C@@H](Cc1c[nH]c2ccccc12)C(N)=O)C(C)C	HUVEC			134
COc1cc([C@@H]2c3cc4c(cc3[C@@H](O[C@@H]3O[C@@H]5CO[C@@H](C)O[C@H]5[C@H](O)[C@H]3O)[C@H]3COC(=O)[C@H]23)OCO4)cc(OC)c1O	HeLa 14 expressing mutant P-gp		48 h	2.9 ± 0.5
c1ccc2sccc2c1	HUVEC	thymidine uptake, inhibitor		> 20
N.N.[Cl][Pt][Cl]	2C6 normal pancreatic	cytotoxicity, MTT	24 h	3.16 ± 0.12
CC[C@@H](C)[C@@H](NC(=O)[C@@H](Cc1c[nH]c2ccccc12)NC(=O)[C@@H](CCCNC(=N)N)NC(=O)[C@H](CCC(N)=O)NC(=O)[C@@H]1CCCN1C(=O)[C@H](CCCNC(=N)N)NC(=O)[C@H](CCCNC(=N)N)NC(=O)[C@H](CCCNC(=N)N)NC(=O)[C@H](CCC(N)=O)NC(=O)[C@H](CCCNC(=N)N)NC(=O)[C@H](CCCNC(=N)N)NC(=O)[C@H](CCCCN)NC(=O)[C@H](CCCCN)NC(=O)[C@H](CCCNC(=N)N)NC(=O)CN)C(=O)N[C@H](CCSC)C(=O)N[C@H](Cc1ccc(O)cc1)C(=O)N[C@H](Cc1ccccc1)C(N)=O	fibroblasts			81
N.N.[Cl][Pt][Cl]	THLE-2, 3D culture	MTT	96 h	4.6 ± 0.21
COc1c(C)c2c(c(O)c1C/C=C(\C)CCC(=O)O)C(=O)OC2	RD-ES	cell proliferation		0.525
N=C(Nc1ccccc1)c1cc2c(-c3ccccc3)n[nH]c2c(Nc2ccccc2)n1	SKOV3	cell viability, MTS	48 h	1.1 ± 0.1
CC[C@H](C)[C@@H]1NC(=O)[C@H](Cc2ccc(-c3ccccc3)cc2)NC(=O)[C@H](CC(C)C)NC(=O)[C@@H]2[C@@H](c3ccccc3)CCN2C(=O)[C@H](NC(=O)[C@H](CCCNC(=N)N)NC(=O)[C@H](CCCNC(=N)N)NC(=O)[C@H](CCCCN=[N+]=[N-])NC(C)=O)CSCSC[C@@H](C(=O)N[C@@H](CCCNC(=N)N)C(=O)N[C@@H](CCCNC(=N)N)C(N)=O)NC(=O)[C@H](C(C)C)NC(=O)[C@@H]2CCCN2C(=O)[C@H](CC(=O)O)NC(=O)[C@H](Cc2ccc(O)cc2)NC(=O)[C@H](CO)NC1=O	AsPC-1	LDH release	18 h	> 50
[Cl-].[Cl-].[Co+2]	HL-7702 normal hepatocytes	cell viability, MTT	48 h	> 150
CCCCC[C@@H]1NC(=O)[C@@H]2CCCN2C(=O)[C@H](CC(=O)O)NC(=O)[C@H](Cc2ccc(O)cc2)NC(=O)[C@H](CO)NC(=O)[C@H]([C@@H](C)CC)NC(=O)[C@H](Cc2ccc(-c3ccccc3)cc2)NC(=O)[C@H](CC(C)C)NC(=O)[C@@H]2[C@@H](c3ccccc3)CCN2C(=O)[C@H](NC(=O)[C@H](CCCNC(=N)N)NC(=O)[C@H](CCCNC(=N)N)NC(C)=O)CSCSC[C@@H](C(=O)N[C@@H](CCCNC(=N)N)C(=O)N[C@@H](CCCNC(=N)N)C(N)=O)NC1=O	AsPC-1	LDH release	18 h	> 50
COc1cccc2c1C(=O)c1c(O)c3c(c(O)c1C2=O)C[C@@](O)(C(=O)CO)C[C@@H]3O[C@H]1C[C@H](N)[C@H](O)[C@H](C)O1	SKOV3	cell viability, MTS	48 h	0.074 ± 0.025
C=CCNC1=C2C[C@@H](C)C[C@H](OC)[C@H](O)[C@@H](C)/C=C(\C)[C@H](OC(N)=O)[C@@H](OC)/C=C\C=C(/C)C(=O)NC(=C(C)C1=O)C2=O	HUVEC	cytotoxicity, MTT		> 20
COc1cc(Nc2nc(CNCc3ccccc3)cc3c(-c4ccccc4)n[nH]c23)cc(OC)c1OC	SKOV3	cell viability, MTS	48 h	4.1 ± 0.2
Cc1ncsc1-c1ccc([C@H](C)NC(=O)[C@@H]2C[C@@H](O)CN2C(=O)[C@@H](c2cc(N3CCC(CN4CCC(OC5CC(Oc6cc(N7C8CCC7CN(c7cc(-c9ccccc9O)nnc7N)C8)ccn6)C5)CC4)CC3)no2)C(C)C)cc1 (stereo partly drawn)	normal prostate epithelial cells	cell viability, CellTiter-Glo	7 days	0.083
CN1CCN(S(=O)(=O)c2cc([N+](=O)[O-])ccc2N(CCOS(C)(=O)=O)CCOS(C)(=O)=O)CC1	HCT-116 overexpressing AKR1C3	cell growth, sulforhodamine B	96 h	0.0018
NCc1cc2c(-c3ccccc3)n[nH]c2c(Nc2ccccc2)n1	SKOV3	cell viability, MTS	48 h	4.3 ± 0.3
CC(=O)O[C@H]1C(=O)[C@@]2(C)[C@H]([C@H](OC(=O)c3ccccc3)[C@]3(O)C[C@H](OC(=O)[C@H](O)[C@@H](NC(=O)c4ccccc4)c4ccccc4)C(C)=C1C3(C)C)[C@]1(OC(C)=O)CO[C@@H]1C[C@@H]2O	HeLa 14 expressing mutant P-gp		48 h	0.0097 ± 0.0006
COc1cc(C(=O)NCCOCCOCCOCCNC(=O)C[C@@H]2N=C(c3ccc(Cl)cc3)c3c(sc(C)c3C)-n3c(C)nnc32)ccc1NC(=O)[C@@H]1N[C@@H](CC(C)(C)C)[C@](C#N)(c2ccc(Cl)cc2F)[C@H]1c1cccc(Cl)c1F	most sensitive cancer line	cell viability, PRISM barcoded screen	5 d	0.14
CC[C@H](C)[C@@H]1NC(=O)[C@H](Cc2ccc(-c3ccccc3)cc2)NC(=O)[C@H](CC(C)C)NC(=O)[C@@H]2[C@@H](c3ccccc3)CCN2C(=O)[C@H](NC(=O)[C@@H](CCCNC(=N)N)NC(=O)[C@@H](CCCNC(=N)N)NC(=O)[C@H](CCCCN=[N+]=[N-])NC(C)=O)CSCSC[C@@H](C(=O)N[C@H](CCCNC(=N)N)C(=O)N[C@H](CCCNC(=N)N)C(N)=O)NC(=O)[C@H](C(C)C)NC(=O)[C@@H]2CCCN2C(=O)[C@H](CC(=O)O)NC(=O)[C@H](Cc2ccc(O)cc2)NC(=O)[C@](C)(CO)NC1=O	AsPC-1	LDH release	18 h	> 50
C=CCNC1=C2C[C@@H](C)C[C@H](OC)[C@H](O)[C@@H](C)/C=C(\C)[C@H](OC(N)=O)[C@@H](OC)/C=C\C=C(/C)C(=O)NC(=C(c3ccccc3)C1=O)C2=O	HUVEC	cytotoxicity, MTT		> 20
